Measured values gathered from unrelated publications.
Parts stem from different laboratories: compare values within a part only.

Sample 1
Target: ATP-dependent RNA helicase DDX3X, helicase core (DDX3X, Homo sapiens, UniProt O00571, residues 132-607)
Sequence of UniProt O00571 (132-607, looked up): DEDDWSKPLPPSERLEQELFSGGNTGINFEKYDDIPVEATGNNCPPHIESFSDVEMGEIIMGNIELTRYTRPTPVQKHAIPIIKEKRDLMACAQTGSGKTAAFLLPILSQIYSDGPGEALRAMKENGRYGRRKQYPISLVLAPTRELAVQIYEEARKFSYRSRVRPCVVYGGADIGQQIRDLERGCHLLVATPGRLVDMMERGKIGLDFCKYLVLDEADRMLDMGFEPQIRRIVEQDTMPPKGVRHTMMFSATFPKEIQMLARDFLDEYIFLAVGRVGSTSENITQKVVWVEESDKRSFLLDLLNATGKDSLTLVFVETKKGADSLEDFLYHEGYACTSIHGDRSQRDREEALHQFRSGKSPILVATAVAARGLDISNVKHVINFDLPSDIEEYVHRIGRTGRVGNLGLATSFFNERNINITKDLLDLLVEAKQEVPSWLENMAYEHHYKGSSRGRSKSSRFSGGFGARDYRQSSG
Technique: RNA Bind-n-Seq
Form: RNA
Medium: in vitro
Concentration: 90 pmol
Notes: 4-mer, random 30-nt RNA, single round
Added: 3 µM DMDA-PatA, 2 mM ADP, 2 mM phosphate
Baseline: input library
Reading: higher = stronger binding
Oligonucleotide	4-mer enrichment [fold]
GUCU	0.826
CAUC	0.93
UCAG	0.98
GCUU	0.772
CGCU	0.806
CGAU	0.755
AGGA	1.22
GCGU	1.32
AUAC	0.904
CUAU	0.819
AUAA	1.1
GCUA	0.794
GUAG	1.09
CUUG	0.765
GACU	0.775
AUGG	0.953
CCUA	0.881
GGCC	0.883
AACC	0.943
GGCG	1.18

Sample 2
Target: RNA binding protein fox-1 homolog 2, RRM domain, GST-SBP tag (RBFOX2, Homo sapiens, UniProt O43251-10, residues 100-194)
Technique: RNA Bind-n-Seq
Form: RNA
Medium: in vitro
Concentration: 365 nM
Notes: natural RNA segment, single round, ends assumed
Baseline: no-protein control
Reading: higher = stronger binding
Oligonucleotide	RBNS enrichment (R)
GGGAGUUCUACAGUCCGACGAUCGUCUCUGAUACAUAAAAUUAUUUUAAGCAUUUUCUCAAUCAUUAAAUGUUACUGCCAGUCAUAAGUGGCUUUUUAAUUACCAGUUUUCAUUGCACUUCACUCUGUUUUCAUGGAAUUCUCGGGUGCCAA	0.583
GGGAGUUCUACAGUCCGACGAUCAGAGUGCCUGGCAAAAAGAUCAAAUGGGGCUGGGACUUCUCAUUGGCCAACCUGCCUUUCCCCAGAAGGAGUGAUUUUUCUAUCGGCACAAAAGCACUAUAUGGACUGGUUGGAAUUCUCGGGUGCCAA	1.33
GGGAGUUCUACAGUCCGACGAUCUGUGGCAGCCUCCUGAGAGCCACCAAGAUCUGGGAUGAAGGCCACACCAGCCAUGUCUGCUGAAGGGCCCCAGACUGAGAUGACUCCGGCCUCCACAGUUAGAUGUUUAUUGGAAUUCUCGGGUGCCAA	0.389
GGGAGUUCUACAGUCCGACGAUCGGUGAGAACCAUCGCUCCUUUGCCAGGUAACUCUUGGGAGCCUCUCCCCCUUCUGCAUAGAGGAAAUCCCAGUGUGUGACAGCCCUUAAGGUUCCUGUGGACUUUGUGUAUGGAAUUCUCGGGUGCCAA	0.416
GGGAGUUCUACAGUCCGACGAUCCCUCUGCAGCCAGAUUUCUAUAUUGGGAGUUUUUUAAAAAGACAUUUCAUAGCCAACAAGAAUCAGUAGAAGUGCUGGGAGCAGCAGCUGGGGAAGCUGCCGCCCACGGGUGGAAUUCUCGGGUGCCAA	0.548
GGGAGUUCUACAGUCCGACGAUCCUCAGCCCUGGUGGCGGCAGAGAAGCGGGCGAGGCACUGUGGUCGCUGAGGGGGUUGGCUGGGUCUGAGUGCCACCCCCCAGGCCACAGUGAUACCAUCCCAGUGCCAUGUGGAAUUCUCGGGUGCCAA	0.727
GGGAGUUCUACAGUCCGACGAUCAGUGAACACAGGCUGCGAUGCUCUGGACAUGUGUGCAUGAGCACGCCGUGGACUCUCGUGCAGGACUUGGGACUCGUGCUGAAGCCUUGGGGUCAAGGAACAUUUCAGUGUGGAAUUCUCGGGUGCCAA	0.805
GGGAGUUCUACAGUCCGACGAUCGACCGAGGCCUGGUCACAGCAGCGAGCAUCCAGGGUUUGCAGGGACGAUGUUACAGACUCUGUUUUCUGCCUGGCGUUUCACUUGUGUCUGCUCCUAGCCUGUGCUCUGCUGGAAUUCUCGGGUGCCAA	0.427

Sample 3
Target: RING finger protein unkempt homolog, zinc fingers 1-6, GST-SBP tag (UNK, Homo sapiens, UniProt Q9C0B0, residues 30-357)
Technique: RNA Bind-n-Seq
Form: RNA
Medium: in vitro
Concentration: not given
Notes: RNA with constant flanks, ends assumed
Baseline: input RNA pool
Reading: higher = stronger binding
Construct (chain): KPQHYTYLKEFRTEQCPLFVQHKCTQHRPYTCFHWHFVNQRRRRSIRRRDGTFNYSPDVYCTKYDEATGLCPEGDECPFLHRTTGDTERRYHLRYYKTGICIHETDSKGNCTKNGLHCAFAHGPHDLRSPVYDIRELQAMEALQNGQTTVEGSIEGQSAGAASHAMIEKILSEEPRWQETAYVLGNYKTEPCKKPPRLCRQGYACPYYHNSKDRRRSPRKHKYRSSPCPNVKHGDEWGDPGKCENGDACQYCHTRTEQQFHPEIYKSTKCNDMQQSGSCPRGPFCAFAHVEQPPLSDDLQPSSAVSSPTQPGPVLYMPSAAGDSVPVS
Oligonucleotide	bound/input enrichment
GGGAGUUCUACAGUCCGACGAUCCUGAAAUCUUUGGAGACUAUGCCUCCAGAGACGUCAAAGACCACGCUGGUAGAGCUUCCCACCGCAAAAGUGGUUGAGCCAUCAGAAACCCUCACGAUAGUGUCAGAGACACCUACUGAGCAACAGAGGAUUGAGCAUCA	0.0723 ratio
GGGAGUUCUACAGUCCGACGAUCGAAGAUGCGGCAUCCUAUGUUAGAAAGGUUAUACCAAAAGAUUACAAGACAAUGGCCGCUUCCGCCAAAGCCAUUGAAAAGAAUGUGCUGUUUUCACAUCUUGAUGAUAAUGAGAGAAGUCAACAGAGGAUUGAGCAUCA	0.495 ratio
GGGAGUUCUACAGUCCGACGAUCUGUGCACGCACACUUAAGUGCAUGCAUGGAAGGUGCCUGGGCUGUCUUUGCUAUAUGUAAACCGGGCCACUGGAUCUUUAUUUUUGAUUAAUUUGUUCUGAUUUUUUUUUUGGUUUGUUUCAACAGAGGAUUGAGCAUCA	1.25 ratio
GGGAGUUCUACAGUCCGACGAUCAUAUGUCUUAUAUUUUCCUGUGACUCUGGAAACUAAACCAUUGUGUGUCUUGUCGUGUCCCCGUUGAGCUGGGGCCUAGCAGCUUCCUUCCAGUGGGUGUGGAGCAAACGUGUAUGUCGCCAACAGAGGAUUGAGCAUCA	0.227 ratio
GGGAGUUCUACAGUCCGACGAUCACCCUCAUCAACAUCCCGUCAUUAAAUGACAGUGACUCAGAAAUAGAAGAUAUUUCAGAAACCGAGUCAAACCGAUCAUUUUCUCCAGAGGAGAGACGUCAUCAGUAUUCUGAUUAUGAUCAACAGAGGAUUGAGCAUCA	0.159 ratio
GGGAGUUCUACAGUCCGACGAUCCUAUGUAAGUUUCAUUUAGAAAGACAUGCAUUUAUAUUUUGUUUCUGUAAUAUUCUACUGCCGGUGAAAUCUUUUCAAAAAUCAAGAGACUGGGUAGAUAAGAAUAUAUGAAUGACUAAUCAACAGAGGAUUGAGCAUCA	0.437 ratio
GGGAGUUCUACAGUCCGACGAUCACAGCUAUCUGGAACUUACUCGUUACAACAGGGCGAGAAGUUAAAUAUGACUUGUUGGUCCGCAAUGCAAUUCAGUUUCUGGCUUCAGUUUGUGAAAGGCCACAUUAUAAGAAUCUGUUUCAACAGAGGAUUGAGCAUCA	0.161 ratio
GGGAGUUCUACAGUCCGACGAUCAUGUACGAGCAUAAUCGAAACGUCACGUGUUUAGUUUUUAUAUGUGUGUACAUAAUUAUACACCGAGAUAGACUUGUGUAUACACCCUUCGCGCGCACACAUACACACACUCACAUCCUCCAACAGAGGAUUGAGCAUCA	0.751 ratio

Sample 4
Target: Histone acetyltransferase KAT6A, both winged helices, GST fusion (KAT6A, Homo sapiens, UniProt Q92794, residues 1-181)
Technique: protein binding microarray
Form: double-stranded DNA, one strand shown
Medium: in vitro
Concentration: not given
Notes: 8-mer, flanks averaged, mean of 2 arrays, mostly near background
Baseline: not given
Reading: higher = stronger binding
Target sequence (chain): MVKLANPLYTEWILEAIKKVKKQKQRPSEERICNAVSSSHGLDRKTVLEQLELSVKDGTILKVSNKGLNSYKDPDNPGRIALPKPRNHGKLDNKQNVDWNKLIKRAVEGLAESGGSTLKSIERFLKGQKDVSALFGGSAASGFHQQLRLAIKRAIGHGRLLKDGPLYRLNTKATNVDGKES
Oligonucleotide	E-score
ACACTTGG	-0.189
GAGAGTTA	-0.258
CCGTATGC	0.217
CACTTTGA	-0.232
CAGGTGGC	-0.189
GTGCCAGA	-0.111
ACCCGATG	0.132
AACGAGGG	-0.178
AGAGTGTG	-0.187
AATGTCTC	0.0469
AGACGAAG	-0.105
ATCGGATA	0.0329
CTCCATAC	-0.0749
AGGCAAGC	-0.126
AAGTATCA	-0.188
CCATTGTC	-0.0929
AATATTTG	-0.0551
AGGAAATA	-0.142

Sample 5
Target: Sal-like protein 4, full length isoform A (SALL4, Homo sapiens, UniProt Q9UJQ4, residues 1-1053)
Sequence of UniProt Q9UJQ4 (whole entry, looked up): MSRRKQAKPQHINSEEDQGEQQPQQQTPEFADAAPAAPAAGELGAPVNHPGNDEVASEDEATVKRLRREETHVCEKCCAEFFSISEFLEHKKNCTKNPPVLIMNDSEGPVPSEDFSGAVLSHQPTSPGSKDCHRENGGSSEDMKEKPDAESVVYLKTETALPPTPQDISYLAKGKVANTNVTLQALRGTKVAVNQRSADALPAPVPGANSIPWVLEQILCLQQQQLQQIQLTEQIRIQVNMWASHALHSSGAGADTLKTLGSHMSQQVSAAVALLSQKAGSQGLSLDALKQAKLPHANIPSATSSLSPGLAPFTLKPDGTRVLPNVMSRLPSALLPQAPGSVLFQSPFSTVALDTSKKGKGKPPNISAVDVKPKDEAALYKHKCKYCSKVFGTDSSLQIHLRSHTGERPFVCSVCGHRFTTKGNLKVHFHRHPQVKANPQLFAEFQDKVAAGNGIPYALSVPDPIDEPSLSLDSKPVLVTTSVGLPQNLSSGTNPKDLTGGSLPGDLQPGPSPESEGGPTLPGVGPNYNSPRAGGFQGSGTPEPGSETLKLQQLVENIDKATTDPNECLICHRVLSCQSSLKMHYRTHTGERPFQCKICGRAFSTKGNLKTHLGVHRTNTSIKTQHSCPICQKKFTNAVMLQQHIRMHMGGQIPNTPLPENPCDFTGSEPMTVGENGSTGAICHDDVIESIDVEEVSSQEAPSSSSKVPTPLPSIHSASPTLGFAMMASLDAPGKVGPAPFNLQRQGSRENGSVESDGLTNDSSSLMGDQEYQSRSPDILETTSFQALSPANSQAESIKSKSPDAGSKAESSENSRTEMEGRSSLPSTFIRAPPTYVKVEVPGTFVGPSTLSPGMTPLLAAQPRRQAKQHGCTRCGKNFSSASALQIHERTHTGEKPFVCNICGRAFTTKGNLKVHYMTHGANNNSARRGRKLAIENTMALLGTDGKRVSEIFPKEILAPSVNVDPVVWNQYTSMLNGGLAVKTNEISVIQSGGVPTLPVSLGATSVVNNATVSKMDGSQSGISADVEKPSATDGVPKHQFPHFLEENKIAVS
Technique: universal PBM
Form: double-stranded DNA, one strand shown
Medium: in vitro
Concentration: 600 nM
Notes: 8-mer, flanks averaged, mean of replicates
Reading: higher = stronger binding
Oligonucleotide	E-score
AGCGAATA	0.177
CCCAGAAG	-0.216
ATTGCACC	0.0393
GAGTTCAA	0.123
CATCATCG	0.065
GCAGAAAC	0.0185
AAACTCCG	-0.0849
TCCAAGGA	-0.00565
ATAGAATC	0.233
GCAAACTA	0.0497
ATGTGTCG	0.0138
GGTGCAGA	-0.177
AAGTTAGC	0.166
GCGCCCAA	-0.196
CCCGGAAG	-0.274
ACCGGGGC	-0.456
ATCAAATG	0.131
CAAACAAA	0.124
ATGCACAA	0.165
CATGCCAC	-0.0962
GTGTGACA	-0.0423
AGCACGGG	-0.262
ATGATTGC	0.212
AAGCTAGG	-0.277

Repeated from above (sample 1):
Oligonucleotide	4-mer enrichment [fold]
AUAC	0.904
CUAU	0.819
AUAA	1.1
GCUA	0.794
GUAG	1.09
CUUG	0.765
GACU	0.775
AUGG	0.953
CCUA	0.881
